# Results collected from several papers.
# Parts stem from different laboratories: compare values within a part only.

# Study 1
# Target: Ras GTPase-activating protein-binding protein 1, full length (G3BP1, Homo sapiens, UniProt Q13283)
# Chain of UniProt Q13283 (whole entry, looked up): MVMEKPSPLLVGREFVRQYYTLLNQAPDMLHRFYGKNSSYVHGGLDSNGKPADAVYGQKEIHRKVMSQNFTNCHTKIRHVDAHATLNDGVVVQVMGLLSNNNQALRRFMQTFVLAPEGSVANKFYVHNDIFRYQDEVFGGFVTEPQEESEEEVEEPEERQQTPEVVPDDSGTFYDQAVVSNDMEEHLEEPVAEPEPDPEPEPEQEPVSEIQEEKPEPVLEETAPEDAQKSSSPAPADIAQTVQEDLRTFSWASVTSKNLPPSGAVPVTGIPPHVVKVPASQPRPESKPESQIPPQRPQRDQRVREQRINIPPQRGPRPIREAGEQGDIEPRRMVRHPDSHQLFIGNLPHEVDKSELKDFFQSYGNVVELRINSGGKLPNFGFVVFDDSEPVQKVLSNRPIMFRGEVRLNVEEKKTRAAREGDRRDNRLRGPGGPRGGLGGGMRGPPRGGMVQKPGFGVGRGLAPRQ
# Method: RNA Bind-n-Seq
# Form: RNA
# Medium: in vitro
# Tested at: 200 nM
# Notes: whole 134-nt RNA, ends assumed
# Together with: 150 mM KCl
# Reference: input library
# Direction: higher = stronger binding
Oligonucleotide,log2 enrichment
GGGAGUUCUACAGUCCGACGAUCUGGGAGGUGGAUUUUGUUUAUUUUUUUAGCUCAUUUCCAGGGGUGGGAAUUUUUUUUAAAUAUGUGUCAUGAAUAAAGUUGUUUUUGAAAUGGAAUUCUCGGGUGUCAAGG,0.142
GGGAGUUCUACAGUCCGACGAUCCUCAAGUCCUGUGCUACACAUCGUAUGUACCGAAUCGGGUUUGGGUGGGUGGGAAAGUAUUAUGUUACGCCGUUCGGAUCUGCACUUCCAUGGAAUUCUCGGGUGUCAAGG,1.33
GGGAGUUCUACAGUCCGACGAUCCAAGUCCUGUGCUACACAUCGUAUGUACCGAAUCGGAGGUUUUUUUGGAAAAAGGAAAGUAUUAUGUUACGCCGUUCGGAUCUGCACUUCUGGAAUUCUCGGGUGUCAAGG,-1.1
GGGAGUUCUACAGUCCGACGAUCUUAGGGCCAAUCUUCGUCAAUAUGGUUUAGAGAAGUAUUACCUUGAUGUCCUGGUUUCAGAUGCAUCUAAACCUUCCUGGAGGAAGGGCAUGGAAUUCUCGGGUGUCAAGG,-0.818

# Study 2
# Target: Histone acetyltransferase KAT6A, winged helix 2, GST fusion (KAT6A, Homo sapiens, UniProt Q92794, residues 85-181)
# Method: protein binding microarray
# Form: double-stranded DNA, one strand shown
# Medium: in vitro
# Tested at: not given
# Notes: 8-mer, flanks averaged, mean of 2 arrays, mostly near background
# Reference: not given
# Direction: higher = stronger binding
# Residues (chain): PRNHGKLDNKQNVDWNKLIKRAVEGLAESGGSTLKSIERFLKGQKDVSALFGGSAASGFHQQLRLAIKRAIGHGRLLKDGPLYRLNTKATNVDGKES
Oligonucleotide,E-score
GAAGTACC,-0.0753
GCACTGGA,0.0645
ACCGACAA,-0.014
GCCTCAAA,0.0846
GCTATATA,0.0124
ACCCTACT,-0.0982

# Study 3
# Target: Interferon regulatory factor 3, full length, phosphomimetic (IRF3, Homo sapiens, UniProt Q14653, residues 1-427, S386D/S396D/S398D/S402D/T404D/S405D)
# Chain of UniProt Q14653 (whole entry, unmodified, looked up): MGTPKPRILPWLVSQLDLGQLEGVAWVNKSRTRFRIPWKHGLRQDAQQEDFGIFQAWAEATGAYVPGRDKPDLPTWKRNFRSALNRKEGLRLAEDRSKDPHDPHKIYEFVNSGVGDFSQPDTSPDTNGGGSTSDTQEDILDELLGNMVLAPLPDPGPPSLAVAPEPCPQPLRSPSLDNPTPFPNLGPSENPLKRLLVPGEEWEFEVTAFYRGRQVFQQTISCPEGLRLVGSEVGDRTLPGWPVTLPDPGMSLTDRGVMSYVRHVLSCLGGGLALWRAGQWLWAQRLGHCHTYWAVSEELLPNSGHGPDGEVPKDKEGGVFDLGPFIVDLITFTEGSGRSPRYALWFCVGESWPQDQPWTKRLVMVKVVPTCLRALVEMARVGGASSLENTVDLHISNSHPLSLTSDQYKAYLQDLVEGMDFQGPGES
# Method: protein-binding microarray
# Form: double-stranded DNA, one strand shown
# Medium: in vitro
# Tested at: 2540 nM top
# Notes: 60-bp whole probe
# Together with: salmon DNA 0.4 mg/ml
# Reference: random background probes
# Direction: higher = stronger binding
# Constant ends, left off below: GCCTAGCAC … GTCTTGATTCGCTTGACGCTGCTG
Oligonucleotide,fitted relative affinity [z-score]
TTAGATATCGGGTATCGGTTAGTGCTA,0.924
AAGTTTCTCCTTTGTAAATAGTGCTAG,2.35
GACGGTCTCGTTATCCTGACGTGCTAG,1.12
GACGGTATCCTTTTCCTCACGTGCTAG,7.28
TTTTTTTTCCTAATTGAACCGTGCTAG,3.64

# Mixed results
Molecule,target,test,test system,setting,how to read,measurement,result
"PhoQ, residues 284 288 289 292 302 303 QWGLFV","PhoP, residues 12 14 15 18 19 SGWQI (Escherichia coli, UniProt P23836)","Sort-seq, refers to: YFP reporter",E. coli,"PhoQ-PhoP variant library, together with: 10 µM Mg2+","reference: high Mg2+ state, higher = stronger signaling",fold induction,0.489

# Some of these lines once more (study 2):
Oligonucleotide,E-score
GCACTGGA,0.0645
GCTATATA,0.0124
